Measurements gathered from unrelated publications.
Values joined by “and” are separate records of one study, mostly repeats; a detail may differ. Numbers after ± are the reported error.
TRPM8: Transient receptor potential cation channel subfamily M member 8 (TRPM8, Homo sapiens, UniProt Q7Z2W7)
GAP50: Glideosome-associated protein 50 (GAP50, Plasmodium falciparum, UniProt Q8I2X3)
FFAR4: Free fatty acid receptor 4 (FFAR4, Homo sapiens, UniProt Q5NUL3)
MAPT: Microtubule-associated protein tau (MAPT, Homo sapiens, UniProt P10636)
PDE1C isoform PDE1C2: Dual specificity calcium/calmodulin-dependent 3',5'-cyclic nucleotide phosphodiesterase 1C, isoform PDE1C2 (PDE1C, Homo sapiens, UniProt Q14123)
NADH dehydrogenase [ubiquinone] iron-sulfur protein 7, mitochondrial/NADH dehydrogenase [ubiquinone] iron-sulfur protein 2, mitochondrial/MT-ND1: NADH dehydrogenase [ubiquinone] iron-sulfur protein 7, mitochondrial/NADH dehydrogenase [ubiquinone] iron-sulfur protein 2, mitochondrial/MT-ND1 (Homo sapiens, UniProt O75251+O75306+P03886)

Compound | target | assay | test system | conditions | how to read | measurement | result
CC#CC(=O)Nc1cc2c(Nc3ccc(F)c(Cl)c3)ncnc2cn1 | TRPM8 | antagonist | HEK293 | 5 µM | baseline: control | remaining activity | 96.2 ± 8.81%
Nc1ncnc2c1ncn2[C@H]1C[C@@H]2OP(=O)(O)OC[C@H]2O1 | anti-cAMP antibody | antibody binding, competitive cAMP EIA |  | concentration not given, acetylated samples | baseline: EC50 cAMP over EC50 cpd, higher = stronger binding | relative binding affinity | 0.0342
Nc1nc2c(ncn2[C@@H]2O[C@H](COP(=O)(O)O)[C@@H](O)[C@H]2O)c(=O)[nH]1 | GUK1 (Homo sapiens, UniProt Q16774) | ITC |  | concentration not given |  | ΔH of binding | -8.58 ± 0.34 kcal/mol
c1ccc(C[C@@H]2CN(c3nccc(Oc4ccc(-n5ccnc5)cc4)n3)CCN2)cc1 | GAP50 | binding, surface plasmon resonance |  | 1:1 binding model |  | koff | 0.835 s⁻¹
O=c1cc(NCCCCCCCO)[nH]c(=O)[nH]1 | FFAR4 | β-arrestin recruitment | CHO | 10 µM | baseline: 30 µM TUG-891 | agonist effect | 0%
Nc1nc2ccc(F)cc2[nH]1 | Voltage-gated hydrogen channel 1 (HVCN1, Homo sapiens, UniProt Q96D96, F150A) | proton current, inhibitor, inside-out patch clamp |  |  |  | Hill coefficient | 1.27 ± 0.12
[O-][S+]1CCCCS1 (stereo not shown) | Superoxide dismutase [Cu-Zn] (SOD1, Homo sapiens, UniProt P00441, G94A) | target engagement | SOD1 G93A transgenic mice, blood | intravenous, 10 mg/kg once daily |  | SOD1 dimer level | 68% and 63%
O=C(O)CC1=C/C(=C\c2cccc(-c3ccc(F)cc3)n2)c2ccc(F)cc21 | Prostaglandin G/H synthase 2 (Ptgs2, Mus musculus, UniProt Q05769) |  |  |  | baseline: IC50 COX-1 over COX-2 | selectivity ratio | 14 fold
O=C(Nc1ccc(O)c(O)c1)c1cc2ccccc2oc1=O | MAPT | heparin-induced aggregation |  | 100 µM | baseline: untreated | ThS fluorescence | 27.6 ± 2.8%
Cc1cc2c(c(=O)[nH]1)C(=O)O/C2=C\c1ccccc1OC(C)C | PDE1C isoform PDE1C2 | enzyme activity, inhibitor |  | added: 3H-cGMP substrate |  | binding free energy | -9.08 kcal/mol
CC[C@@H]1[C@H](F)C(=O)N[C@@H]1COc1nccc2cc(C(N)=O)c(OC)cc12 | Cyclin-dependent kinase 9 (CDK9, Homo sapiens, UniProt P50750) | ATP-site probe binding, ActivX profiling | THP-1 cell lysate | 0.04 mM, Lys2 site |  | inhibition | 0.9%
Nc1ncnc2c1ncn2[C@@H]1O[C@H](COP(=O)(O)OP(=O)(O)OP(=O)(O)O)[C@@H](O)[C@H]1O | P2X purinoceptor 7 (P2rx7, Rattus norvegicus, UniProt Q64663, I214A/R125A) | ion current, agonist, two-electrode voltage clamp | Xenopus laevis oocytes | 3.3 µM | baseline: highest concentration response | normalized current | 0
O=C(O)CCCCCCCNc1cc(=O)[nH]c(=O)[nH]1 | FFAR4 | agonist, β-arrestin recruitment | CHO cells | 10 µM |  | activation | 0%
O=C1NC(=O)C(c2cn(CCCn3ccnc3)c3ccccc23)=C1Nc1ccccc1 | TRPM8 | antagonist | HEK293 | 5 µM | baseline: control | remaining activity | 100 ± 5.62%
CC(=O)Nc1ccc(O)cc1 | Bromodomain-containing protein 4 (BRD4, Homo sapiens, UniProt O60885) | 19F NMR, refers to: tyrosine 97 |  | 375 µM | baseline: free protein | chemical shift change | -0.148 ppm
Cc1cc2c(c(=O)[nH]1)C(=O)O/C2=C\c1cc(F)ccc1OC(C)C | PDE1C isoform PDE1C2 | enzyme activity, inhibitor |  | added: 3H-cGMP substrate |  | ligand efficiency | 0.44
NC(=O)NOCCCCCCCCCCCCCCCC[P+](c1ccccc1)(c1ccccc1)c1ccccc1.O=C([O-])C(F)(F)F | NADH dehydrogenase [ubiquinone] iron-sulfur protein 7, mitochondrial/NADH dehydrogenase [ubiquinone] iron-sulfur protein 2, mitochondrial/MT-ND1 | complex I-dependent respiration, Seahorse XF96 | HCT-116 | 10 µM, 24 h | baseline: control | oxygen consumption rate | 2.14%
O=C(Nc1ccc2ccccc2n1)Nc1cccs1 | 3-oxoacyl-[acyl-carrier-protein] reductase FabG (fabG, Pseudomonas aeruginosa, UniProt O54438) | enzyme activity, inhibitor, NADPH fluorescence |  | reverse reaction, added: 3-OH-decanoyl-NAC, NADP |  | Hill slope | 1.2
Cc1cc(Nc2cc(N3CCN(C)CC3)nc(Sc3ccc(NC(=O)C4CC4)cc3)n2)[nH]n1 | Rho-associated protein kinase 1 (ROCK1, Homo sapiens, UniProt Q13464) | kinase activity, KinaseProfiler |  | 0.03 µM, species human | baseline: control | remaining activity | 122%
CCCCCNc1cc(=O)[nH]c(=O)[nH]1 | FFAR4 | β-arrestin recruitment | CHO | 10 µM | baseline: 30 µM TUG-891 | agonist effect | 1%

Compound | target | assay | test system | conditions | how to read | measurement | result
NC(=O)NOCCCCCCCCCCCCCC[P+](c1ccccc1)(c1ccccc1)c1ccccc1.O=C([O-])C(F)(F)F | NADH dehydrogenase [ubiquinone] iron-sulfur protein 7, mitochondrial/NADH dehydrogenase [ubiquinone] iron-sulfur protein 2, mitochondrial/MT-ND1 | complex I-dependent respiration, Seahorse XF96 | HCT-116 | 20 µM, 24 h | baseline: control | oxygen consumption rate | 0.11 ± 2.19%
O=C(NC1CCC1)c1ccc2nc(-c3cccc(NS(=O)(=O)NCCN4CCCCC4)c3)cn2c1 | Protein ENL (MLLT1, Homo sapiens, UniProt Q03111) | degrader, immunoblot, refers to: MLLT1 |  | 10 µM, 2 h | baseline: DMSO control | protein level | 19%
C#CCN(CCCN1CCN(C2CCCCC2)CC1)c1ccc(C(=O)c2ccccc2)cc1 | Sigma intracellular receptor 2 (TMEM97, Homo sapiens, UniProt Q5BJF2) | radioligand binding | RT-4 cell membranes |  | baseline: sigma1 Ki over sigma2 Ki | Ki ratio | 8.39
CN(CCCCCCNC(=O)CNc1cccc2c1C(=O)N(C1CCC(=O)NC1=O)C2=O)Cc1cn(Cc2ccc(C(=O)NO)cc2)c2ccccc12.O=C(O)C(F)(F)F (stereo not shown) | Polyamine deacetylase HDAC10 (HDAC10, Homo sapiens, UniProt Q969S8) | degrader, western blot | MM1.S | 1 µM, 24 h |  | degradation | 85%
CC(=O)Nc1ccc(-c2noc(C[C@H]3CCCN(Cc4cccc(F)c4C)C3)n2)cc1 | GAP50 | binding, surface plasmon resonance |  | 1:1 binding model |  | koff | 0.826 s⁻¹
C=CC(=O)N1CCC(COCC(=O)N2CCN(c3nc(-c4cnc(N)nc4C(F)F)nc(N4CCOC[C@@H]4C)n3)CC2)CC1 | Receptor-type tyrosine-protein kinase FLT3 (FLT3, Homo sapiens, UniProt P36888) | KINOMEscan |  | 1 µM |  | remaining binding | 86%
COc1ccc(F)cc1C(=O)NCc1ccc(-c2nn([C@@H](C)C(F)(F)F)c(N)c2C(N)=O)cc1 | Mitogen-activated protein kinase kinase kinase 11 (MAP3K11, Homo sapiens, UniProt Q16584) | kinase activity, inhibitor, HotSpot radiometric |  | 100 nM, added: ATP 10 µM |  | remaining activity | 91 ± 0.5%
O=c1cc(NCCc2cccc(F)c2)[nH]c(=O)[nH]1 | FFAR4 | antagonist, β-arrestin recruitment | CHO cells | 10 µM |  | inhibition | 11 ± 5%
CN(C)c1ccc2nc3ccc(=[N+](C)C)cc-3sc2c1 | MAPT | fibril formation, ThT fluorescence |  | 1-fold of tau, at plateau, added: wild-type tau 10 µM, heparin | baseline: untreated | ThT fluorescence | 14 ± 2%
O=C(COc1cc(Cl)ccc1Cl)NCc1cccs1 | Kir3.1/Kir3.2 (Homo sapiens, UniProt P48051+P48549) | activator, thallium flux | HEK293 | concentration not given |  | activity | inactive
NCCCS(=O)(=O)O | Sodium- and chloride-dependent taurine transporter (SLC6A6, Homo sapiens, UniProt P31641, G62A) | binding, microscale thermophoresis |  | 122 nM, room temperature, added: 50 nM labelled protein | higher = more binding | normalised MST signal | 0.0811
O=c1nc(SCc2cc(F)cc(C(F)(F)F)c2)nc(SCc2ccc3nc(Cl)ccc3c2)[nH]1 | DNA topoisomerase 2-alpha (TOP2A, Homo sapiens, UniProt P11388) | ATPase activity |  | 125 µM, added: ATP 0.05 mM |  | ATP hydrolysis rate | 0.498 µM/min and 0.207 µM/min
CCOc1nc2cccc(C(=O)O)c2n1Cc1ccc(-c2ccccc2-c2nnn[nH]2)cc1 | Neutrophil gelatinase-associated lipocalin (LCN2, Homo sapiens, UniProt P80188, C107S) | NMR line shape analysis |  | three-state model, state 1 |  | koff | 119 ± 2 s⁻¹
CCCNc1cc(=O)[nH]c(=O)[nH]1 | FFAR4 | β-arrestin recruitment | CHO | 10 µM | baseline: 30 µM TUG-891 | agonist effect | 0%
NCc1ccc(C(F)(F)F)cc1 | Amine oxidase [flavin-containing] A (MAOA, Homo sapiens, UniProt P21397) | substrate |  | pH 9.0, α,α-protio substrate |  | kcat | 4.72 ± 0.095 s⁻¹
CN1CCC(CNc2ccc3ncc(-c4cccc(OC(F)(F)F)c4)n3n2)CC1 | Muscarinic acetylcholine receptor M2 (CHRM2, Homo sapiens, UniProt P08172) | cAMP, antagonist, cell-based GPCR |  | 10 µM | baseline: control | response | > 50%
c1coc(CNc2nc(N3CCCCC3)nc3ccccc23)c1 | GAP50 | binding, surface plasmon resonance |  | 1:1 binding model |  | kon | 38800 M⁻¹ s⁻¹
O=C(NCc1ccc(CNS(=O)(=O)c2ccccc2)cc1)c1ccncc1 | C-X-C chemokine receptor type 4 (CXCR4, Homo sapiens, UniProt P61073) | binding, inhibitor, competitive binding | MDA-MB-231 | added: biotinylated TN14003 |  | EC | 10 nM
O=C(Nc1nnc(-c2ccc(Cl)s2)o1)c1ccc(Cl)s1 | GAP50 | binding, surface plasmon resonance |  | 1:1 binding model |  | koff | 2.35 s⁻¹
O=c1cc(NCCc2ccccc2F)[nH]c(=O)[nH]1 | FFAR4 | antagonist, β-arrestin recruitment | CHO cells | 10 µM |  | inhibition | 15 ± 4%

For quick reference, copied from above:
Compound | target | assay | test system | conditions | how to read | measurement | result
C#CCN(CCCN1CCN(C2CCCCC2)CC1)c1ccc(C(=O)c2ccccc2)cc1 | Sigma intracellular receptor 2 (TMEM97, Homo sapiens, UniProt Q5BJF2) | radioligand binding | RT-4 cell membranes |  | baseline: sigma1 Ki over sigma2 Ki | Ki ratio | 8.39
O=C1NC(=O)C(c2cn(CCCn3ccnc3)c3ccccc23)=C1Nc1ccccc1 | TRPM8 | antagonist | HEK293 | 5 µM | baseline: control | remaining activity | 100 ± 5.62%
CN1CCC(CNc2ccc3ncc(-c4cccc(OC(F)(F)F)c4)n3n2)CC1 | Muscarinic acetylcholine receptor M2 (CHRM2, Homo sapiens, UniProt P08172) | cAMP, antagonist, cell-based GPCR |  | 10 µM | baseline: control | response | > 50%
Nc1ncnc2c1ncn2[C@H]1C[C@@H]2OP(=O)(O)OC[C@H]2O1 | anti-cAMP antibody | antibody binding, competitive cAMP EIA |  | concentration not given, acetylated samples | baseline: EC50 cAMP over EC50 cpd, higher = stronger binding | relative binding affinity | 0.0342
NCCCS(=O)(=O)O | Sodium- and chloride-dependent taurine transporter (SLC6A6, Homo sapiens, UniProt P31641, G62A) | binding, microscale thermophoresis |  | 122 nM, room temperature, added: 50 nM labelled protein | higher = more binding | normalised MST signal | 0.0811
COc1ccc(F)cc1C(=O)NCc1ccc(-c2nn([C@@H](C)C(F)(F)F)c(N)c2C(N)=O)cc1 | Mitogen-activated protein kinase kinase kinase 11 (MAP3K11, Homo sapiens, UniProt Q16584) | kinase activity, inhibitor, HotSpot radiometric |  | 100 nM, added: ATP 10 µM |  | remaining activity | 91 ± 0.5%
